Published values from different studies.
Every numbered part comes from another study and shows a few of its results, in no order. Values joined by “and” are separate records of one study, mostly repeats; a detail may differ.
Sequence of UniProt Q9HAZ1 (whole entry, looked up): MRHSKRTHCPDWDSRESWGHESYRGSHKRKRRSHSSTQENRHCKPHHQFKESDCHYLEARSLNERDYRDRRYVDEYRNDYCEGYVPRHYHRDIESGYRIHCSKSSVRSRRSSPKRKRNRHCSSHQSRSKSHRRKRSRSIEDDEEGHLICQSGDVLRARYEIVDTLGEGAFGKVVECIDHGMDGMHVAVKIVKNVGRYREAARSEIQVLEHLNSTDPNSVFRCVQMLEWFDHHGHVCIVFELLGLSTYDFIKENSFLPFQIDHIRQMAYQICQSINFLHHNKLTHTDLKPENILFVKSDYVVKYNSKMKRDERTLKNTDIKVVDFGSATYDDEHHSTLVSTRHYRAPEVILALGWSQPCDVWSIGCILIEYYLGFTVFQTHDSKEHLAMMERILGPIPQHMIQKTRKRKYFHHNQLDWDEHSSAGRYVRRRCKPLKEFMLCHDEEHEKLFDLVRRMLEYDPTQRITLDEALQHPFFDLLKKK
Sequence of UniProt Q99683 (whole entry, looked up): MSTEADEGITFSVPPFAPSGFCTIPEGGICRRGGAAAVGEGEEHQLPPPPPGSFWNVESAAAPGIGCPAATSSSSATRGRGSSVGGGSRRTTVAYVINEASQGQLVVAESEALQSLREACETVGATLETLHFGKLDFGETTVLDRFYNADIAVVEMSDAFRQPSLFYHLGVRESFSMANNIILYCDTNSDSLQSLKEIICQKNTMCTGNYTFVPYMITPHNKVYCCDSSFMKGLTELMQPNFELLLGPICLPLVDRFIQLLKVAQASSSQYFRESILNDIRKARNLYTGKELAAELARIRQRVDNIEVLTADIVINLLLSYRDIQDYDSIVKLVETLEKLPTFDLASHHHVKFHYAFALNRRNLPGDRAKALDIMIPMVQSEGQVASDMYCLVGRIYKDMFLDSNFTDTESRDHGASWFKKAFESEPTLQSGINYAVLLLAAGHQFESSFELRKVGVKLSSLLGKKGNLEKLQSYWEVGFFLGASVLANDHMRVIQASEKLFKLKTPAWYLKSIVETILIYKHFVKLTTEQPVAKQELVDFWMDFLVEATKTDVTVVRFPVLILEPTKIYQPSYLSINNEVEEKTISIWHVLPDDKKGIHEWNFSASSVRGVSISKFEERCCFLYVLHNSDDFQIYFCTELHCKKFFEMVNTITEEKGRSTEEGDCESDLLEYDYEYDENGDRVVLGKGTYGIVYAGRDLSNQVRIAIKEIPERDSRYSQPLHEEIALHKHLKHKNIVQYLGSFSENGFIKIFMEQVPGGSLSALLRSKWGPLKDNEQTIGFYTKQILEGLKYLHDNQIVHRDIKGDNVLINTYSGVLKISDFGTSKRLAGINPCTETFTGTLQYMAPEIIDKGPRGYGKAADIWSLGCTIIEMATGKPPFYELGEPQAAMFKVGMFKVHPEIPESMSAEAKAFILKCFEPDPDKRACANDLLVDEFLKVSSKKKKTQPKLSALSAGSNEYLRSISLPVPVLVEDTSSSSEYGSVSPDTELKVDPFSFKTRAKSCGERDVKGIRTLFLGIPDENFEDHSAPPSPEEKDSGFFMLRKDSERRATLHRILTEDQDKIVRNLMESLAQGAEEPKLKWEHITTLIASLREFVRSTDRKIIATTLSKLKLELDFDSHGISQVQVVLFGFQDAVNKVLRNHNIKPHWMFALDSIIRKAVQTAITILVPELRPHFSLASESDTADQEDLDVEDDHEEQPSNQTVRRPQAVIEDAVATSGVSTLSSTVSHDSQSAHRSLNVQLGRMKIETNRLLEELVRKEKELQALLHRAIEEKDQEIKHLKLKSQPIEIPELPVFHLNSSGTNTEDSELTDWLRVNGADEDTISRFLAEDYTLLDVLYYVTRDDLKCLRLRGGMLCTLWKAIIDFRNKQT
Sequence of UniProt P50613 (whole entry, looked up): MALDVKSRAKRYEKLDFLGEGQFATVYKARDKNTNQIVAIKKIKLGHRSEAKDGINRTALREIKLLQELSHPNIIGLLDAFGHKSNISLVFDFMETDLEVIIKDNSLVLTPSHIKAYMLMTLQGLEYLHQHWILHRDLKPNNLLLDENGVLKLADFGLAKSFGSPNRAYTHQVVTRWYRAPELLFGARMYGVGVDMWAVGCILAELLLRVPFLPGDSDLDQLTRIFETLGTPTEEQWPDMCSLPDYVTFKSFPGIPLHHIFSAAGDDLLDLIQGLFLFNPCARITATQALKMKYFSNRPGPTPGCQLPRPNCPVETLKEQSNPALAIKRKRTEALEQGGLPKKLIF
Sequence of UniProt O15111 (whole entry, looked up): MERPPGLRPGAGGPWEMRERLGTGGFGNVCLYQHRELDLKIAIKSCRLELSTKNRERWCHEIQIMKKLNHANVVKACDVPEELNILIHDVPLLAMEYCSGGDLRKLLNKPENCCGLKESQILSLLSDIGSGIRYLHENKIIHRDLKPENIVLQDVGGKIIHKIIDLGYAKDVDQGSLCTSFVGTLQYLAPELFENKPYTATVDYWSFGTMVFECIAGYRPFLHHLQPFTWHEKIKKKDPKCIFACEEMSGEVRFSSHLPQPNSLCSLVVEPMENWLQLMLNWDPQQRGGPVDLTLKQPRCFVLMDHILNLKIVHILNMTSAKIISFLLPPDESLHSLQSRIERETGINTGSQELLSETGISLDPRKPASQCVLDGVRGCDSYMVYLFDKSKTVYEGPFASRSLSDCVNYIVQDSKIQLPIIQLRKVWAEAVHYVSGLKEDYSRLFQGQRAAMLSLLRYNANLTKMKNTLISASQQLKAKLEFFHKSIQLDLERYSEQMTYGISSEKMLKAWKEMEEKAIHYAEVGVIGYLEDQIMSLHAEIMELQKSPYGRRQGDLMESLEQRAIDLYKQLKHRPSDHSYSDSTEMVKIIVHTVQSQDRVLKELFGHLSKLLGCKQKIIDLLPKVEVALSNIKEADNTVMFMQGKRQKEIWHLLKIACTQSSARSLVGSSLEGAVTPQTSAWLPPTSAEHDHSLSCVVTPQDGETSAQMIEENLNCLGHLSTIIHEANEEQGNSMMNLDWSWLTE

Set 1
Structure (SMILES): Nc1nccc(-c2c(-c3ccc(F)cc3)ncn2C2CCNCC2)n1
Observed: enzyme activity
Mode: inhibitor
Concentration: 0.5 µM
Reference: control
It gave 94.1% for remaining activity (ROS1 (Homo sapiens, UniProt P08922)).
The remaining activity was 102% (MAP3K8 (Homo sapiens, UniProt P41279)).
For CSNK2A2 (Homo sapiens, UniProt P19784): remaining activity read 92.2%.
The remaining activity was 97.1% (NTRK3 (Homo sapiens, UniProt Q16288)).
Cyclin-dependent kinase 2, with cyclin A (CDK2, Homo sapiens, UniProt P24941) — remaining activity: 100%.
For CDK7 (Homo sapiens, UniProt P50613): remaining activity read 98.9%.
HIPK3 (Homo sapiens, UniProt Q9H422) — remaining activity: 97.6%.
DMPK (Homo sapiens, UniProt Q09013) — remaining activity: 99.3%.
For EGFR (Homo sapiens, UniProt P00533): remaining activity read 94.4%.
Aurora kinase A (AURKA, Homo sapiens, UniProt O14965) — remaining activity: 100%.
For CAMK1G (Homo sapiens, UniProt Q96NX5): remaining activity read 99.3%.
MAP3K2 (Homo sapiens, UniProt Q9Y2U5) — remaining activity: 94%.
For DYRK4 (Homo sapiens, UniProt Q9NR20): remaining activity read 99.3%.
It gave 99.9% for remaining activity (SLK (Homo sapiens, UniProt Q9H2G2)).
For PTK2B (Homo sapiens, UniProt Q14289): remaining activity read 94.6%.
For BRSK1 (Homo sapiens, UniProt Q8TDC3): remaining activity read 99.7%.
PRKD1 (Homo sapiens, UniProt Q15139) — remaining activity: 54.6%.
For PKN2 (Homo sapiens, UniProt Q16513): remaining activity read 97.1%.
It gave 89.4% for remaining activity (RET (Homo sapiens, UniProt P07949)).
MAPK10 (Homo sapiens, UniProt P53779) — remaining activity: 105%.
CAMK1D (Homo sapiens, UniProt Q8IU85) — remaining activity: 103%.
It gave 103% for remaining activity (GRK5 (Homo sapiens, UniProt P34947)).
NEK9 (Homo sapiens, UniProt Q8TD19) — remaining activity: 100%.

Set 2
Matrix: hydrocarbon/water
The logD of `CCN1CC(=O)N[C@@H](CC(C)C)C(=O)N2CCC[C@@H]2C(=O)N(C)[C@@H](CC(C)C)C(=O)N[C@@H](C)C(=O)N(CC2CCCCC2)CC(=O)N[C@@H](C)C(=O)N2CCC[C@@H]2C(=O)N(C)[C@@H](CC(C)C)C(=O)N[C@@H](C)C1=O` is reported as 1.75.
With `CC[C@H]1C(=O)N[C@@H](CC2CCCCC2)C(=O)N(C)[C@@H](C)C(=O)N[C@@H](CC(C)C)C(=O)N(C)Cc2cn(nn2)CC(=O)N[C@@H](CC(C)C)C(=O)N(C)[C@@H](C)C(=O)N[C@@H](CC(C)C)C(=O)N2CCC[C@@H]2C(=O)N1C` the logD was 1.1.
The logD of `CC[C@@H]1NC(=O)CN(CC)C(=O)[C@H]2CCCN2C(=O)[C@H](CC(C)C)NC(=O)[C@H](C)N(C)C(=O)[C@H](CC(C)C)NC(=O)Cn2cc(nn2)CN(C)C(=O)[C@H](CC(C)C)NC(=O)[C@H](C)N(C)C1=O` is reported as -1.89.
`CCCCCN1CC(=O)N[C@@H](Cc2ccccc2)C(=O)N2CCC[C@@H]2C(=O)N(C)[C@@H](CC(C)C)C(=O)N[C@@H](C)C(=O)N(Cc2ccc3c(c2)OCO3)CC(=O)N[C@@H](CC(C)C)C(=O)N2CCC[C@@H]2C(=O)N(C)[C@@H](CC(C)C)C(=O)N[C@@H](C)C1=O` gave a logD of 3.06.
For `CC(C)C[C@@H]1NC(=O)CN(CCCOC(C)C)C(=O)[C@H](C)NC(=O)[C@H](CC(C)C)N(C)C(=O)[C@H]2CCCN2C(=O)[C@H](Cc2ccccc2)NC(=O)CN(CC2CCCCC2)C(=O)[C@H](C)NC(=O)[C@H](CC(C)C)N(C)C(=O)[C@H]2CCCN2C1=O`, the logD was 3.2.
`CC[C@H]1NC(=O)[C@H](CC(C)C)NC(=O)[C@H](Cc2ccccc2)NC(=O)[C@H]2CCCN2C(=O)[C@H](CC2CCCCC2)NC(=O)[C@H](CC2CCCCC2)NC1=O` gave a logD of 2.54.
With `CCCCCN1CC(=O)NC(CC(C)C)C(=O)N(C)C(C)C(=O)NC(Cc2ccccc2)C(=O)N2CCCC2C(=O)N(CC)CC(=O)NC(CC(C)C)C(=O)N(C)C(C)C(=O)NC(CC(C)C)C(=O)N2CCCC2C1=O` (centres unmarked) the logD was 2.83.

Set 3
Structure (SMILES): C[C@@H]1CN(c2cc(-c3nn(C)c4ccc(OC5(C)CC5)cc34)ncn2)C[C@H](C)O1
MAP3K14: Mitogen-activated protein kinase kinase kinase 14 (MAP3K14, Homo sapiens, UniProt Q99558)
Sequence of UniProt Q99558 (whole entry, looked up): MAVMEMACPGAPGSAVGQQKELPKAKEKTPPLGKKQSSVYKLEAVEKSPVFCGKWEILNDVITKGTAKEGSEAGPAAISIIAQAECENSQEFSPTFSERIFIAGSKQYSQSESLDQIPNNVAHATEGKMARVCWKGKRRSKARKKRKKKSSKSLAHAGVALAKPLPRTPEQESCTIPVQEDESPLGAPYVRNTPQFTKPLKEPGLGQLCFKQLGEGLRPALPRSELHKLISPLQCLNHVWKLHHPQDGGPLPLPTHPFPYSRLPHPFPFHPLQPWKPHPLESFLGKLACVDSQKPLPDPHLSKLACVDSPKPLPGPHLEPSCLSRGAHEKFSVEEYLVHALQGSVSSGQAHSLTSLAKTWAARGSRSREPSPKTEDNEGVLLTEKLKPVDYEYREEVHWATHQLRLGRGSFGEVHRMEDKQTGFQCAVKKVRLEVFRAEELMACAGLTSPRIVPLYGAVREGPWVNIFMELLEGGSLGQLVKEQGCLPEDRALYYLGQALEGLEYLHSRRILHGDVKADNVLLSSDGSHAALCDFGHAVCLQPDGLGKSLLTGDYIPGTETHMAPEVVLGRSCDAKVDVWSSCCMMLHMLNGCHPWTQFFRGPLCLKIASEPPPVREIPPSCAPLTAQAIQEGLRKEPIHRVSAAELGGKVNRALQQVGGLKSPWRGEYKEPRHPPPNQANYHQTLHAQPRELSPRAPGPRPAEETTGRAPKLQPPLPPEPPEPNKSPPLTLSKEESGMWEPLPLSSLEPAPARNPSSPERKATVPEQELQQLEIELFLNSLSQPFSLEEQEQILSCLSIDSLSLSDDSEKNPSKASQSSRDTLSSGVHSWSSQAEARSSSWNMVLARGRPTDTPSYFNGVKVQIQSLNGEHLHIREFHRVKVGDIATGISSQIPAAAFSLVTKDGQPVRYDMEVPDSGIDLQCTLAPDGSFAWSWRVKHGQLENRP
TTK: Dual specificity protein kinase TTK (TTK, Homo sapiens, UniProt P33981)
Sequence of UniProt P33981 (whole entry, looked up): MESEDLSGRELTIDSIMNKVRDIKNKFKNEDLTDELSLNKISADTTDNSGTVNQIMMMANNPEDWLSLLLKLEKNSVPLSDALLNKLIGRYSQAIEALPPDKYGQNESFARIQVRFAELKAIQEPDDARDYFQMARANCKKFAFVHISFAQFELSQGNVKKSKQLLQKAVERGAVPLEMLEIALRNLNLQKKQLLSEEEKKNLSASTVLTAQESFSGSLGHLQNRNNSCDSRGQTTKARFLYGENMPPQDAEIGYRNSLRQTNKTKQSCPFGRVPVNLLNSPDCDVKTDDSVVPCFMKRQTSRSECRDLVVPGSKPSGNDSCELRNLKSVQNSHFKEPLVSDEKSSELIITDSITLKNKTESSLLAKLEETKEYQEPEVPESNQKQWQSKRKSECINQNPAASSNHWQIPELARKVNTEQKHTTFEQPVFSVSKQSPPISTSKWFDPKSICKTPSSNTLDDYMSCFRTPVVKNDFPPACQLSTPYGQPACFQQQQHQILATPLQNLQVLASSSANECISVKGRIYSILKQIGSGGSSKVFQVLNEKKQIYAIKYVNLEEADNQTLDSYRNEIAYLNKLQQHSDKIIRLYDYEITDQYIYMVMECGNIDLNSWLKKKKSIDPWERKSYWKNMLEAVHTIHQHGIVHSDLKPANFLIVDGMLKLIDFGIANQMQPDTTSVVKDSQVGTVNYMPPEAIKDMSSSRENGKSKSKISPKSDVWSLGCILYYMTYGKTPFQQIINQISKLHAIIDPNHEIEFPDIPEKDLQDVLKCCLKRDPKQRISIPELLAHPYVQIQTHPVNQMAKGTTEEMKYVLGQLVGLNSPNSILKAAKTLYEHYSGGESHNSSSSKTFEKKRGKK
MAP3K14; target engagement in cells, BRET — EC50: over 50 µM.
For LRRK2 (Homo sapiens, UniProt Q5S007); target engagement, NanoBRET; live cells: EC50 read over 50 µM.
TTK; target engagement, NanoBRET; live cells — EC50: over 50 µM.
The EC50 was 4.38 µM and 9.18 µM and 5.12 µM (CLK4 (Homo sapiens, UniProt Q9HAZ1); target engagement, NanoBRET; live cells).
The EC50 was 8.27 µM and 1.16 µM and 2.98 µM (MAP3K5 (Homo sapiens, UniProt Q99683); target engagement, NanoBRET; live cells).
For TTK; target engagement in cells, BRET: EC50 read over 50 µM.
For MAP3K14; target engagement, NanoBRET; live cells: EC50 read over 50 µM.
CLK2 (Homo sapiens, UniProt P49760); target engagement in cells, BRET — EC50: 11 µM.

Set 4
Structure (SMILES): CC(C)S(=O)(=O)c1ccc2nccc(Nc3ccc4sc(C5CCCC5)nc4c3)c2c1.Cl
Observed: kinase activity
Mode: inhibitor
Concentration: 1 µM
NLK (Homo sapiens, UniProt Q9UBE8) — remaining activity: 86%.
It gave 97% for remaining activity (PIP4K2A (Homo sapiens, UniProt P48426)).
CDK7 (Homo sapiens, UniProt P50613) — remaining activity: 105%.
The remaining activity was 95% (CDC42BPA (Homo sapiens, UniProt Q5VT25)).
It gave 98% for remaining activity (TAOK3 (Homo sapiens, UniProt Q9H2K8)).
ROCK1 (Homo sapiens, UniProt Q13464) — remaining activity: 99%.
DAPK3 (Homo sapiens, UniProt O43293) — remaining activity: 99%.
The remaining activity was 86% (MAP3K21 (Homo sapiens, UniProt Q5TCX8)).
For TEK (Homo sapiens, UniProt Q02763): remaining activity read 78%.
FGFR1 (Homo sapiens, UniProt P11362) — remaining activity: 109%.
It gave 90% for remaining activity (TSSK2 (Homo sapiens, UniProt Q96PF2)).
For FLT1 (Homo sapiens, UniProt P17948): remaining activity read 111%.
SGK1 (Homo sapiens, UniProt O00141) — remaining activity: 112%.
For GSK3B (Homo sapiens, UniProt P49841): remaining activity read 111%.
It gave 119% for remaining activity (CHUK (Homo sapiens, UniProt O15111)).
